Assay results pooled from the literature.
A part holds a random share of what one study measured. Substitutions count along the parent as printed.

Set 1 — method: aptamer microarray, sandwich; form: DNA with 2'F-ANA; medium: in vitro; tested at: 200 nM; with: Cy3 exosite-II aptamer, 400 nM; direction: higher = stronger binding; endpoint: mean fluorescence intensity; strand: GGTTGGTGTGGTTGG
Target: Prothrombin, mature alpha-thrombin (F2, Homo sapiens, UniProt P00734)
Setting: whole 15-mer aptamer, many near background
2'F-ANA at 1 2 4 5 8 11 14: 85.2 a.u.
2'F-ANA at 3 4 6 11 13 14 15: 241 a.u.
2'F-ANA at 1 3 4 5 7 9 10 11 13 14: 47.3 a.u.
2'F-ANA at 4 7 8 12 14: 220 a.u.
2'F-ANA at 1 2 3 5 7 9 12 14 15: 46.7 a.u.
2'F-ANA at 2 3 4 9 10 13 15: 213 a.u.
2'F-ANA at 2 3 5 8 9 10 11 12 13 15: 136 a.u.
2'F-ANA at 1 2 3 5 7 9 14: 73.6 a.u.

Set 2 — target: FOSL2, bZIP domain (human); method: DHFR protein complementation; medium: yeast; baseline: wild-type JUN-FOS pair; direction: higher = stronger binding; endpoint: binding fitness
Setting: single substitutions, most at no-binding floor
Parent: JUN, bZIP domain (human); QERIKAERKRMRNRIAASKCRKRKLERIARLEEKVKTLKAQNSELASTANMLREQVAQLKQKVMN; partner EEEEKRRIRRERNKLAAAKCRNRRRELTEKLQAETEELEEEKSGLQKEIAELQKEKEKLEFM
A46C: -0.129 natural log
V56E: -1.28 natural log
M51S: 0.0625 natural log
A46E: 0.000514 natural log
R53P: -1.43 natural log
A46I: -0.0671 natural log
T37V: 0.0736 natural log
T48E: -0.0142 natural log

Set 3 — method: universal PBM; form: double-stranded DNA, one strand shown; medium: in vitro; tested at: 600 nM; direction: higher = stronger binding; endpoint: E-score
Target: Sal-like protein 4, full length isoform A (SALL4, Homo sapiens, UniProt Q9UJQ4, residues 1-1053)
UniProt Q9UJQ4, sequence (whole entry, looked up): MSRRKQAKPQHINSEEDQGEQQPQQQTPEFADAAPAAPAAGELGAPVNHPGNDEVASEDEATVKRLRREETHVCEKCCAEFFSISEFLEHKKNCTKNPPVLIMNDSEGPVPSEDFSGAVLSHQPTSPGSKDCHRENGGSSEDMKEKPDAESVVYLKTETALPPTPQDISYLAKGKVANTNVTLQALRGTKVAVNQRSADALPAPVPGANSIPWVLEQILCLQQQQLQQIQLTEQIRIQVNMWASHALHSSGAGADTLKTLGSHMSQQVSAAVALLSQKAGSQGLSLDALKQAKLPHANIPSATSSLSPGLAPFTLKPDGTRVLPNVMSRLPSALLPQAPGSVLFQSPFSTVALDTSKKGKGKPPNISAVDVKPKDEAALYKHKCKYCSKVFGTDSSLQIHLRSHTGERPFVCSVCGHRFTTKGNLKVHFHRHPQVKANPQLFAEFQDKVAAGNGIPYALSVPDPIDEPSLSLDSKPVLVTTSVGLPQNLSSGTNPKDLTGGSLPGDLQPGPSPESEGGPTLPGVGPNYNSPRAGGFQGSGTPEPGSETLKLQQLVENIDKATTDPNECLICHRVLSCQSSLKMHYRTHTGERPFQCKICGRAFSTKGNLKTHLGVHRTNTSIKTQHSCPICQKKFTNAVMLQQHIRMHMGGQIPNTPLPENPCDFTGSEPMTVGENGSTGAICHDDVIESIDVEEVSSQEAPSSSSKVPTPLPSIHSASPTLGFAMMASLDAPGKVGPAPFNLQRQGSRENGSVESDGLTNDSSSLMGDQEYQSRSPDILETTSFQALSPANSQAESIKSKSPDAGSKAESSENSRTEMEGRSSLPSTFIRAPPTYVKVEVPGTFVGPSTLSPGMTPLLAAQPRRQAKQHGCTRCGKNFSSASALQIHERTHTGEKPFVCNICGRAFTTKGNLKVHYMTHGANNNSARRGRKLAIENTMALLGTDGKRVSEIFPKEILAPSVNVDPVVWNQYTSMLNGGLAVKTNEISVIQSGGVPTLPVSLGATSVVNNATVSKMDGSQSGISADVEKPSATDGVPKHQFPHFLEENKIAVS
Setting: 8-mer, flanks averaged, mean of replicates
GACAGAAA: 0.173
AGCACACA: -0.177
CACCAATA: 0.201
ACCATTCA: 0.0529
CATAATTC: 0.379
AGCAACGC: -0.0618
CGATACAA: 0.17
GACGGCGC: -0.298

Other studies, line by line
Parent: viral docking peptide; KGVKRKLFAEDSS; partner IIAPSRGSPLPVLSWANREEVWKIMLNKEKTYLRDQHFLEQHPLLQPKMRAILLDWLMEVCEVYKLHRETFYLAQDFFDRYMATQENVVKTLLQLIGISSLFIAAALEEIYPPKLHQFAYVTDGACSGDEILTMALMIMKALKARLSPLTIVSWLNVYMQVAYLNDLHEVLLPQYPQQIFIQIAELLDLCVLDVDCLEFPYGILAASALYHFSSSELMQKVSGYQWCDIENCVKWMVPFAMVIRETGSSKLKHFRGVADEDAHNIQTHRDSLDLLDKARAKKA
E10G  normalised enrichment score (CCNE1, cyclin fold, Cln2 fusion (human); yeast growth competition, sequencing; yeast; strong parent motif; baseline: not given, higher = stronger binding): 6.8

Repeated from above (set 2):
M51S: 0.0625 natural log
A46E: 0.000514 natural log
R53P: -1.43 natural log
